Measured values gathered from unrelated publications.
Each line is one published result; not all experiments were run side by side.
Route: intravenous

CNC(=O)N[C@]1(C)CCC[C@@]2(C)C3CC[C@@]4(C)C[C@]3(CCC21)CC4=O (single isomer, unassigned) — clearance (male Sprague-Dawley rat, plasma; 2 mg/kg): 31 mL/min
CC12CC3CC(C)(C1)CC(NC(=O)Nc1ccc(C(=O)N4CCC[C@H](C(N)=O)C4)cc1F)(C3)C2 — clearance (Sprague-Dawley rat, plasma; 10 mg/kg): 20.2 mL/min
Cn1cc(-c2cc(N3CCCS3(=O)=O)ccc2N[C@H]2CC[C@H](C)CC2)c2cc[nH]c2c1=O — clearance (Sprague-Dawley rat, plasma; 1 mg/kg): 76.4 mL/min/kg
COCCCN1CCc2c(Cc3ccc(Cl)cc3)[nH]c3c(OC(F)F)ccc(c23)C1=O — clearance (male Sprague-Dawley rat, blood; 2.5 mg/kg): 35.2 mL/min/kg
Cc1cc(/C=C/C#N)cc(C)c1Oc1nc(NC2CCN(Cc3ccc(P(C)(C)=O)cc3)CC2)nc2ccsc12 — clearance (male Sprague-Dawley rat, plasma; 2 mg/kg): 52.1 mL/min/kg
COc1ccc(COc2c(OC)ccc3c2C[C@@H](C(=O)O)N(c2nc4ccc(F)cc4o2)C3)cc1 — clearance (male Sprague-Dawley rat, plasma; 1 mg/kg): 5.3 mL/min/kg
COc1cc2ncnc(Oc3ccc(Nc4nccc5[nH]cc(-c6ccc(F)cc6)c(=O)c45)cc3F)c2cc1OC — clearance (male Sprague-Dawley rat, plasma; 5 mg/kg): 0.167 mL/min/kg
CCCN(c1ccc(C(=O)NCCC(=O)O)cc1)S(=O)(=O)c1cc(C)c(-c2ccc(C(C)(C)C)cc2)c(C)c1 — clearance (rat, plasma; 2 mg/kg): 23.6 mL/min/kg
CSCOC1C(=O)C2(C)C(OCSC)CC3OCC3(OC(C)=O)C2C(OC(=O)c2ccccc2)C2(O)CC(OC(=O)C(O)C(C=C(C)C)NC(=O)OC(C)(C)C)C(C)=C1C2(C)C (stereo not shown) — clearance (male Sprague-Dawley rat, plasma; 4 mg/kg): 60 mL/min/kg
N[C@@H](COc1ccccc1C(F)(F)F)c1ccccc1 — clearance (rat, plasma; 5 mg/kg): 292 mL/min/kg
Cc1ccc(OCC(=O)N(Cc2cccs2)c2ccn[nH]2)cc1 — clearance (male Sprague-Dawley rat, plasma; 1 mg/kg, single dose): 79 mL/min/kg
COc1ccc2c(c1OCc1ccccc1)C[C@@H](C(=O)O)N(c1nc3ccc(C#N)cc3o1)C2 — clearance (male Sprague-Dawley rat, plasma; 1 mg/kg): 1.7 mL/min/kg
Cc1ncnc(C)c1-c1ccc(C(=O)N2CC[C@H](C(=O)Nc3cc(F)c(F)c(F)c3)C2)[nH]1 — clearance (male Sprague-Dawley rat, plasma; 0.5 mg/kg): 15.2 mL/min/kg

Some of these lines once more:
COc1cc2ncnc(Oc3ccc(Nc4nccc5[nH]cc(-c6ccc(F)cc6)c(=O)c45)cc3F)c2cc1OC — clearance (male Sprague-Dawley rat, plasma; 5 mg/kg): 0.167 mL/min/kg
CCCN(c1ccc(C(=O)NCCC(=O)O)cc1)S(=O)(=O)c1cc(C)c(-c2ccc(C(C)(C)C)cc2)c(C)c1 — clearance (rat, plasma; 2 mg/kg): 23.6 mL/min/kg
